Experimental data from different studies.
Parts stem from different laboratories: compare values within a part only.

Set 1 — method: protein-binding microarray; molecule type: double-stranded DNA, one strand shown; sample: in vitro; tested at: 2540 nM top; setting: 60-bp whole probe; added: salmon DNA 0.4 mg/ml; baseline: random background probes; reading: higher = stronger binding; quantity: fitted relative affinity; all sequences stand within: GCCTAGCAC … GTCTTGATTCGCTTGACGCTGCTG
Target: Interferon regulatory factor 3, full length, phosphomimetic (IRF3, Homo sapiens, UniProt Q14653, residues 1-427, S386D/S396D/S398D/S402D/T404D/S405D)
Chain of UniProt Q14653 (whole entry, unmodified, looked up): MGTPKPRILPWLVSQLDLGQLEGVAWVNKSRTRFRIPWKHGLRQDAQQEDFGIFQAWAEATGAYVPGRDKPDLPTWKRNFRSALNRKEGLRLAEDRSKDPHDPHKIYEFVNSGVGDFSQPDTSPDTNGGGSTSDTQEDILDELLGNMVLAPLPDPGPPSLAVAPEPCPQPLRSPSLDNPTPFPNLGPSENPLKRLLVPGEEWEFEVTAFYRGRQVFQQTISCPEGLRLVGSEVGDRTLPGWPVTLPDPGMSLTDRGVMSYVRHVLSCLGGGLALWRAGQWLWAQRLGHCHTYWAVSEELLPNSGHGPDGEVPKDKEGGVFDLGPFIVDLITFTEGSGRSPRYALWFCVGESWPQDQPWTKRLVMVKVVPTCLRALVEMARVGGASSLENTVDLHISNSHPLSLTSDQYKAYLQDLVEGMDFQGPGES
TCAGATCTCAGTCTCGATTAGTGCTAG: 1.31 z-score
TCAGCTCCCTTTCTCTCTGTGTGCTAG: 2.92 z-score
TTAGATCCCAGACTGGATTAGTGCTAG: 0.39 z-score
TTAGGACTGCTTTCCCTTTAGTGCTAG: 4.16 z-score
CTTTCTTTCCATACTGCAAGGTGCTAG: 7.5 z-score
TTAGGTTTCGGCCTCGGTTAGTGCTAG: 2.81 z-score
TTAGAACTGAGTCTCGATGAGTGCTAG: -0.641 z-score
TTAGGGCTGGGGACTGGGTTAGTGCTA: -1.5 z-score
ATAGGTATCGGGTATCGGTTAGTGCTA: 2.16 z-score
CTAGATATCAGTATCGATTAGTGCTAG: 1.94 z-score
TTAGGTATCCTATTGCTTTAGTGCTAG: 3.69 z-score
TCACGGCTCGTTATCCTACTGTGCTAG: 0.184 z-score
GAGGAACTGGGGACTGGAGACGTGCTA: -0.989 z-score
TTTGGTTTCGACACTGGGTTAGTGCTA: 3.34 z-score
GACGATAACAGTATCGAGACGTGCTAG: 0.151 z-score
GGATGTGTCTTAAATAGGGGAGTGCTA: 0.168 z-score
GTCATTTACATTTTAGTAGTGTGCTAG: 1.68 z-score
GACGGTCTCCTACTGCTTACGTGCTAG: 1.02 z-score
GACGCTTTCGGGTATCGGGACGTGCTA: 2.01 z-score
GACGACTTCAGTTCCGAGACGTGCTAG: 0.279 z-score
TTACGTCTCGGTTTCGGTTAGTGCTAG: 5.25 z-score
TCAACTTTCTTTCAAATACTGTGCTAG: 1.28 z-score
CACGGTATCGGTTTCGGGACGTGCTAG: 7.2 z-score

Set 2 — method: RNA Bind-n-Seq; molecule type: RNA; sample: in vitro; tested at: 365 nM; baseline: no-protein control; reading: higher = stronger binding; quantity: RBNS enrichment (R)
Target: RNA binding protein fox-1 homolog 2, RRM domain, GST-SBP tag (RBFOX2, Homo sapiens, UniProt O43251-10, residues 100-194)
Setting: natural RNA segment, single round, ends assumed
All sequences stand within: GGGAGUUCUACAGUCCGACGAUC … UGGAAUUCUCGGGUGCCAA
Construct (chain): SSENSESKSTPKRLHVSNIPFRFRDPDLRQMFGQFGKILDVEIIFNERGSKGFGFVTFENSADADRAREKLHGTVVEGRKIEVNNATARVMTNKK
AAAUGAAAUAUUUCAAAGACUGAAUAUUUUCAAAGAAAAUGAAUAAUUCAUUGCCCUUGUGAUUUAGAAGAUUAUAACAGCUGUAUUUCAUAUUUGCCUCCUUAUAUAUA: 0.451
UUGAGGGUAGAAUUUAGCGUUUGGUUUUUACCUCCUAGCAUAUGCUGUUUGGUAUGUGAGGGUUUCAGUACAAAUGCUGCUGUCUAUUUCUGUGCACUUAACAAUGGAAC: 1.44
UUUAGCAAGCCCUGAGAUAUAGUAACUUCCUUGGUUAUGAGUCUUGUUGAAUGACUCCUUUUGGAAAGUUUAAACUCUGACAUGGCAUUGCCCUGGAAGUCUUGCCCCAU: 0.434
CAUCCAAAGAAGAUACAGUAUGAAAGUAGAGGUGCACUCUCUAUAAUACAAUCUACUGUACAGUUAGCAAGCGAAGUGUUAAAUGGAGAAGAUGCUUGUUUUUAUUAAAC: 0.427
CCUCCAAGGGUAGGUGUCUCAUUUGUUCUGGCCCCUUGGAUUUAAAAAUAAAAUUAAUUUCCUGUUGAUAGUGGGCACCUCGGUUUCUUCCUCACUGCUCUGUUUUCCCC: 2.37
CCCCACGGGUACCAGGAAGUGCAGAGCCGCACAGGAGCUGCCCCGGAGCUGAGGGGACGGUCUUCGGCUCCUCUGCACCCCGUGAUUCUGCCCACGCUCCUCCACCACGA: 0.465
UGCAGUGGUGGUGAGGCCGCCCCGCUCCAUCCCGAGGCAGCCAGGGUUUGUUUUGCGCUCUCCUGUCACAAAUGCUGCACUAUUGGUUCUUAAGUUUUUUAUCUCCAGAU: 0.352
GAGUGUGGCUGAUGGCCUGGGAGGUGGGUUUUCCAUAAUCAUUUCCAUUUGCUAGUUCUCAUGUGAUAUGCAACGGUCCAAGAUGGUUAUCUGAAUCAGGAUAGAACACC: 0.565
AGGGUCUGCAGGUUCCAUGGGUGACAGCCUGAGAUCUGUCCCUUCAACGGGCUGGGCUGGGUAUGUGCCUACCGAUGACAAUGUGUAAAUAAAUGCGUGUUCACACCCAC: 0.752
UUCUGACUGUCCAGGAGCUAAUCUGACCGUUCUAUUGUGUGGAUGACCACAUAAGAAGGCAAUUUUAGUGUAUUAAUCAUAGAUUAUUAUAAACUAUAAACUUAAGGGCA: 0.445
CCUGUGAUCUUCUGGAAGCUCCAAAGCUGAAACCCUUCAGCUUUGCAACUAAAAAUAUUACAGUUUAAUAAUCAAUUAAACCAACCAACAAUAAGCACUACACAUCUGCC: 0.877
AGCCUUGUGAGUGCAAUAGGGGACUCUUAAAGCUCCAGCCACCAAACUACAUGCAUCUGUGAAAACAUGUGUAUUUAUGAAGGUGGACUUGAAGCUGCCCAGGAUUUUAA: 0.242

Set 3 — method: aptamer microarray, sandwich; molecule type: DNA with 2'F-ANA; sample: in vitro; tested at: 200 nM; added: Cy3 exosite-II aptamer, 400 nM; reading: higher = stronger binding; quantity: mean fluorescence intensity; strand: GGTTGGTGTGGTTGG
Target: Prothrombin, mature alpha-thrombin (F2, Homo sapiens, UniProt P00734)
Setting: whole 15-mer aptamer, many near background
2'F-ANA at 2 3 5 6 7 8 12 13 14 15: 59.8 a.u.
2'F-ANA at 3 4 5 8 11 12: 196 a.u.
2'F-ANA at 2 3 4 6 9 12: 771 a.u.
2'F-ANA at 1 2 6 7 10 12: 65.1 a.u.
2'F-ANA at 2 5 9 10 11 13: 66.4 a.u.
2'F-ANA at 1 2 5 6 10 12 13 14: 46.2 a.u.
2'F-ANA at 2 6 9 10 11 12 14: 139 a.u.
2'F-ANA at 4 5 7 13 15: 52.2 a.u.
2'F-ANA at 5 6 8 11 14 15: 46.1 a.u.
2'F-ANA at 1 2 5 6 9 13 14 15: 95.1 a.u.
2'F-ANA at 1 2 3 7 10 11 12 13 15: 90.8 a.u.
2'F-ANA at 2 3 7 9 11 14: 398 a.u.
2'F-ANA at 1 6 8 9 12 13: 299 a.u.
2'F-ANA at 1 3 5 8 13 14 15: 45.3 a.u.
2'F-ANA at 2 3 5 6 12 13: 158 a.u.
2'F-ANA at 3 4 5 9 11 13 14 15: 48.5 a.u.

Set 4 — method: RNA Bind-n-Seq; molecule type: RNA; sample: in vitro; tested at: 200 nM; setting: whole 134-nt RNA, ends assumed; added: 150 mM KCl; baseline: input library; reading: higher = stronger binding; quantity: log2 enrichment
Target: Fragile X messenger ribonucleoprotein 1, C-terminal low-complexity region (Fmr1, Mus musculus, UniProt P35922)
All sequences stand within: GGGAGUUCUACAGUCCGACGAUC … UGGAAUUCUCGGGUGUCAAGG
UCCUGUGCUACACAUCGUAUGUACCGAAUCGGGAAAAAAAGGGUUUUUUUGGGUUUGGGAAAGUAUUAUGUUACGCCGUUCGGAUCUGCA: -0.337
AAGUCCUGUGCUACACAUCGUAUGUACCGAAUCGGAAAAAAAGGUUUUUGGUUUGGAAAGUAUUAUGUUACGCCGUUCGGAUCUGCACUU: -1.38
UGGGAGGUGGAUUUUGUUUAUUUUUUUAGCUCAUUUCGAGGGGUGGGAAUUUUUUUUUAAUAUGUGUCAUGAAUAAAGUUGUUUUUGAAA: 0.171
UGAAUGCUGAGAAUGUUGCUGGUCACCAGAUUGCCUCUGAAACACAGAUCCUUGAGGGCUCUUUGGGAAUAUCUGUAAAGUCACACUGCA: -0.0649
GUCCUGUGCUACACAUCGUAUGUACCGAAUCGGGUUUUUUUGGGUUUGGGAAAAAGGGAAAGUAUUAUGUUACGCCGUUCGGAUCUGCAC: -0.379
CUCAAGUCCUGUGCUACACAUCGUAUGUACCGAAUCGGGAAGGGGAAGGAAGGAAAGUAUUAUGUUACGCCGUUCGGAUCUGCACUUCCA: -0.17
UGGCCCUGGUGGCAUGCGGGGAGGAAGAGGUGGCGUCAUGGAUCGUGGUGGUCCCGGUGGAAUGUUCAGAGGUGGCCGUGGUGGAGACAG: 0.434
UCCUGUGCUACACAUCGUAUGUACCGAAUCGGGGAAAAAGGGGAAAAAGGGAAAAAGGGGAAAGUAUUAUGUUACGCCGUUCGGAUCUGC: 0.0819
UAGUUUAUGCCAACGUGACUUCAUUCAUACAGAUGAACCAAGGAUCGGGAUAGCAGUAUAAAAUUAGAAUCAAGACAGCUGACUGCUCAG: -2.17
CAAGUCCUGUGCUACACAUCGUAUGUACCGAAUCGGAAAAAGGUUUGGAAAAAGGAAAGUAUUAUGUUACGCCGUUCGGAUCUGCACUUC: -0.989
CCUGUGCUACACAUCGUAUGUACCGAAUCGGGGAAAAAAGGGGAAAAAAGGAAAAAAGGGAAAGUAUUAUGUUACGCCGUUCGGAUCUGC: -0.324
AAGUCCUGUGCUACACAUCGUAUGUACCGAAUCGGGAAAGGGAAAGGGGAAAGGGGAAAGUAUUAUGUUACGCCGUUCGGAUCUGCACUU: 0.195
UGUGCUACACAUCGUAUGUACCGAAUCGGGGAAAAAAAGGGGAAAAAAAGGGAAAAAAAGGGAAAGUAUUAUGUUACGCCGUUCGGAUCU: -0.299
AAGUCCUGUGCUACACAUCGUAUGUACCGAAUCGGAAAAAGGAAAAAAAGGAAAGGAAAGUAUUAUGUUACGCCGUUCGGAUCUGCACUU: -0.952

Some of these lines once more (set 3):
2'F-ANA at 1 2 5 6 9 13 14 15: 95.1 a.u.
2'F-ANA at 1 3 5 8 13 14 15: 45.3 a.u.
2'F-ANA at 2 3 4 6 9 12: 771 a.u.
2'F-ANA at 2 6 9 10 11 12 14: 139 a.u.
2'F-ANA at 3 4 5 8 11 12: 196 a.u.
2'F-ANA at 2 3 5 6 7 8 12 13 14 15: 59.8 a.u.
2'F-ANA at 2 5 9 10 11 13: 66.4 a.u.
2'F-ANA at 1 6 8 9 12 13: 299 a.u.
